Results collected from several papers.
Lines come from different studies, so protocols differ. ± marks the error that the study gave.
lecA: PA-I galactophilic lectin (lecA, Pseudomonas aeruginosa, UniProt Q05097)
UniProt Q05097, sequence (whole entry, looked up): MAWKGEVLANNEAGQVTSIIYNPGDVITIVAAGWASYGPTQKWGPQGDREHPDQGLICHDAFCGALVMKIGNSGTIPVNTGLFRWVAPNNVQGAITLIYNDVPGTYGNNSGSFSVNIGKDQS
UniProt Q9NZC7, sequence (whole entry, looked up): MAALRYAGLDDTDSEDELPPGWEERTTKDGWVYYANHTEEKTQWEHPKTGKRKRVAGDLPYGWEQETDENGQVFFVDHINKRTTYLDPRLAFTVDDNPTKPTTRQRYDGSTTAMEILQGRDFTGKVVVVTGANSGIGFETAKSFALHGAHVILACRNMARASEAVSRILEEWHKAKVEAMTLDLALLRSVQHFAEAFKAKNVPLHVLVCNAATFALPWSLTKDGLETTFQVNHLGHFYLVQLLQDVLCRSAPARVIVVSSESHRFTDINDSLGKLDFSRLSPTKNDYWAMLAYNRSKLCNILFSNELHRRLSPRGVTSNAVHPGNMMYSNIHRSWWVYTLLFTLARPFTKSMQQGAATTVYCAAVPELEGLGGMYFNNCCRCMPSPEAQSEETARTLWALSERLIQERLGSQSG
UniProt P69687, sequence (whole entry, looked up): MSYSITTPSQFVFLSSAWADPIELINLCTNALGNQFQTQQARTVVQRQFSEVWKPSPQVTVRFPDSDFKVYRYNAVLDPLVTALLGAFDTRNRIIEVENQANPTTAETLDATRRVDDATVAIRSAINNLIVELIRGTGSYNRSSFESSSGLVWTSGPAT
UniProt P09622, sequence (whole entry, looked up): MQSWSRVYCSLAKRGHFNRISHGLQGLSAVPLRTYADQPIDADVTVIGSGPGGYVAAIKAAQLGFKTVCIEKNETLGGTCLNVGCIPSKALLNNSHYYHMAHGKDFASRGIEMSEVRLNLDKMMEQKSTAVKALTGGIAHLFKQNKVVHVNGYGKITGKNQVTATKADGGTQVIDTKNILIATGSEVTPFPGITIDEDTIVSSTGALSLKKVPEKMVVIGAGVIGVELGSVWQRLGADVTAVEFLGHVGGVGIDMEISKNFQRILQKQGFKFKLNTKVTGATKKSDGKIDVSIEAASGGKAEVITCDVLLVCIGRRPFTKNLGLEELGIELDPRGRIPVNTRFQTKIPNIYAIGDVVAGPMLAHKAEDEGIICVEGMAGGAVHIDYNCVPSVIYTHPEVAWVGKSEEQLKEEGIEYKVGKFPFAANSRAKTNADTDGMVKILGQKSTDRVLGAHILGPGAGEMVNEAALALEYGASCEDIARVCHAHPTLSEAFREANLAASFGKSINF
UniProt P22455, sequence (whole entry, looked up): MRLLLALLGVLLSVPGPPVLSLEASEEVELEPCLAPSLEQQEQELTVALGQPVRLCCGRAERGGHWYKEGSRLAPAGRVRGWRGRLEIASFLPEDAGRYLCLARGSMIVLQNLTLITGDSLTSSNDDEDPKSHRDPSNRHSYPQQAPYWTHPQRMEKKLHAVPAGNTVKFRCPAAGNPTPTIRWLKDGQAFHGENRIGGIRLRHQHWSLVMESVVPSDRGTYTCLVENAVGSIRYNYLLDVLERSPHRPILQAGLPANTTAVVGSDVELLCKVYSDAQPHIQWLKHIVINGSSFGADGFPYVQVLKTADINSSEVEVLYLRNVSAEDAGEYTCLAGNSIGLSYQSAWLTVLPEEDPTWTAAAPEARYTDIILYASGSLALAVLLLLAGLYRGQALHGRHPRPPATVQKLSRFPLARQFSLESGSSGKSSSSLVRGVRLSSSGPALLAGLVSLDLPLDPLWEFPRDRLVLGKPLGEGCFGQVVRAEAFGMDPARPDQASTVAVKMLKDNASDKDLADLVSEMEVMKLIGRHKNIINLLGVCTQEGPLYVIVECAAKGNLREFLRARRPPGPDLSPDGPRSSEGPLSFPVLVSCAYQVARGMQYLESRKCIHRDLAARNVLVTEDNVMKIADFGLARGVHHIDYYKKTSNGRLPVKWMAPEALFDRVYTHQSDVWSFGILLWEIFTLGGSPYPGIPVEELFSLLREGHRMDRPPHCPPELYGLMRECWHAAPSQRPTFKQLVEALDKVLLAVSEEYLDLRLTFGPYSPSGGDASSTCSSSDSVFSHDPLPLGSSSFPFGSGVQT
UniProt Q23972, sequence (70-281, looked up): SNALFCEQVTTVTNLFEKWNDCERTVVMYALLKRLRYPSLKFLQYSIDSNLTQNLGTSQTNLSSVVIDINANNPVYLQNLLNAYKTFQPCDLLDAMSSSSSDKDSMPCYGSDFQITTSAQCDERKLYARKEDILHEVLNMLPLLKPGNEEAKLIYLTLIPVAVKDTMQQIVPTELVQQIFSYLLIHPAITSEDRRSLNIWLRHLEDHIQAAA
UniProt O35082, sequence (whole entry, looked up): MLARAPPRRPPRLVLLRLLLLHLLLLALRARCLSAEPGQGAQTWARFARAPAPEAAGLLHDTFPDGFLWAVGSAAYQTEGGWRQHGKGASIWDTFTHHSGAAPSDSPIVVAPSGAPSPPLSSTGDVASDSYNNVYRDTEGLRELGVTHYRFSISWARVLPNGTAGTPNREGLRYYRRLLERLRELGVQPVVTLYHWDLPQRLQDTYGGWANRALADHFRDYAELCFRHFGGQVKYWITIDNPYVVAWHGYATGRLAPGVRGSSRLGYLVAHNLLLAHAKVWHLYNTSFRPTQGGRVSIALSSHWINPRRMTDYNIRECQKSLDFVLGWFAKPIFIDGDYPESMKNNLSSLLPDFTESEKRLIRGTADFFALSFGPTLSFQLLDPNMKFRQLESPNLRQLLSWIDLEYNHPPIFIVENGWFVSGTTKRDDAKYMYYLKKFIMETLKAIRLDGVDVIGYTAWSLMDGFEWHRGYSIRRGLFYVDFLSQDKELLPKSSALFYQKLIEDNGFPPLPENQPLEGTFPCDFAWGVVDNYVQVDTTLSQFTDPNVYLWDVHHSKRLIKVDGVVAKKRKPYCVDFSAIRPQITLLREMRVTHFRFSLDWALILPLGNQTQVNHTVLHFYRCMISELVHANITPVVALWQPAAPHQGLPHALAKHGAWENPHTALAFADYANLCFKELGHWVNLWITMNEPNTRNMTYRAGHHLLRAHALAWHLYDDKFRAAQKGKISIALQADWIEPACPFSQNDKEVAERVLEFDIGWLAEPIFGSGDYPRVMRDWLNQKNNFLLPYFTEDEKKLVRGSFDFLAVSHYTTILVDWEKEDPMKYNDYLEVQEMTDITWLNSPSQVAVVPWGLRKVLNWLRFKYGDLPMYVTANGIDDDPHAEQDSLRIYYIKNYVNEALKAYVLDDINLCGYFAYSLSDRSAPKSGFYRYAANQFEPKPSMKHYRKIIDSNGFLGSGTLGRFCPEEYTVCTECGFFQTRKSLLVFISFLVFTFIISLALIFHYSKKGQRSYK
UniProt Q08460, sequence (whole entry, looked up): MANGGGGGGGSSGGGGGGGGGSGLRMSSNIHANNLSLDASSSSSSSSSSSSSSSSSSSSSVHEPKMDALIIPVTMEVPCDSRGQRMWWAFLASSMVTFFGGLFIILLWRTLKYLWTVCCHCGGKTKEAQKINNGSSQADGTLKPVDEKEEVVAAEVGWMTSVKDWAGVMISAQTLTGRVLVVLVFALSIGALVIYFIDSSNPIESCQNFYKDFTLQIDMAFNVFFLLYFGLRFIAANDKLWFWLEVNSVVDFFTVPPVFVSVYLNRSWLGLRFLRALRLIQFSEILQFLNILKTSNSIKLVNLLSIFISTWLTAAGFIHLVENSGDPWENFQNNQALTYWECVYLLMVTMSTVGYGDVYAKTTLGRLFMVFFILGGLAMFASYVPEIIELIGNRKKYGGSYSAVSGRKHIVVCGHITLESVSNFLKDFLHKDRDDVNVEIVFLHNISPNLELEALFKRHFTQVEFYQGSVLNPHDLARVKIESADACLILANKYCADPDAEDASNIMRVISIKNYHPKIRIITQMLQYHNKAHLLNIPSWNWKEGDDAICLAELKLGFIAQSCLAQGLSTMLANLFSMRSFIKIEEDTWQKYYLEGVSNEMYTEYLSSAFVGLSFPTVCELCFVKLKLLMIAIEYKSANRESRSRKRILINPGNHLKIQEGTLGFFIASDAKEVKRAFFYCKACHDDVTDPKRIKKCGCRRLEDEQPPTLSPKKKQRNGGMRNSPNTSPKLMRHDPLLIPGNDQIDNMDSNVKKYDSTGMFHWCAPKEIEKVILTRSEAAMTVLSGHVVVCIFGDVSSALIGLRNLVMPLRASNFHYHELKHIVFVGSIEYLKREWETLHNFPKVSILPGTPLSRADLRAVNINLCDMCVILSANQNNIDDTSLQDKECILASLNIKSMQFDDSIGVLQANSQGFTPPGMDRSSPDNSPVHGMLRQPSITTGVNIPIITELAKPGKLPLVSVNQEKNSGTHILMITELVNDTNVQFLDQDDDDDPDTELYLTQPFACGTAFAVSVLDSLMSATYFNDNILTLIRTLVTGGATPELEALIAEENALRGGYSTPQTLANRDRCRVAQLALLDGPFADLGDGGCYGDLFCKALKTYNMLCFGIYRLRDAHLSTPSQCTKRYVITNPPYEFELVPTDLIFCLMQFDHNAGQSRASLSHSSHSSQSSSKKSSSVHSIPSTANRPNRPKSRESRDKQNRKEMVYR
UniProt Q9ULV8, sequence (whole entry, looked up): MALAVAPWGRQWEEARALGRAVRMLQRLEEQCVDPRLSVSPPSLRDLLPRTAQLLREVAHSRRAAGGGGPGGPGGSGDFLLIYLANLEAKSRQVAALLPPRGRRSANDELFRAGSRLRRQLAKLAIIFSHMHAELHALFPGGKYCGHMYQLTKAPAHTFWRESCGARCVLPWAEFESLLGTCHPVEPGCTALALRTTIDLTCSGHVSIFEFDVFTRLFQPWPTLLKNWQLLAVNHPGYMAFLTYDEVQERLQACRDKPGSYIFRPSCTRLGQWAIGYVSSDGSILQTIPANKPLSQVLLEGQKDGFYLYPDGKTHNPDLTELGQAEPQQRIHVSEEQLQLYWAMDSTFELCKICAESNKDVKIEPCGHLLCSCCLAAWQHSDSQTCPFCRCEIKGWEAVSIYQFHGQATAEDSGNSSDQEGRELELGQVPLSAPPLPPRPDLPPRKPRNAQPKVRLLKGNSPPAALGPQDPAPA

Structure (SMILES)	target	test	system	conditions	Kd [nM]
CC(C)C[C@H](NC(=O)[C@H](Cc1c[nH]cn1)NC(=O)[C@H](CCC(N)=O)NC(=O)[C@@H]1CCCN1C(=O)[C@H](CC(N)=O)NC(=O)CNC(=O)[C@H](CCC(N)=O)NC(=O)[C@H](CCCC[N+](C)(C)C)NC(=O)[C@H](CCCNC(=N)N)NC(=O)[C@H](CCCNC(=N)N)NC(=O)[C@@H](N)CO)C(=O)N[C@@H](CO)C(=O)O	Lysine-specific demethylase PHF2, PHD and JmjC domains (Homo sapiens, UniProt O75151)	–	–	pH 8, 25 °C	> 7000
CC(C)CC(NC(=O)C(NC(=O)NC(C(=O)O)C(C)C)C1CCNC(=N)N1)C(=O)NCCCNC(C(=O)O)C(OC1OC(CN)C(O)C1O)C1OC(n2ccc(=O)[nH]c2=O)C(O)C1O (stereo not drawn)	mraY (Aquifex aeolicus, UniProt O66465, F262A)	binding, ITC	–	–	228
CC(C)C[C@H](NC(=O)[C@@H]1CCCN1C(=O)[C@H](CCCCN)NC(=O)C[C@@H]1O[C@@H](C)[C@@H](O)[C@@H](O)[C@@H]1O)C(=O)NCCCC[C@H](NC(=O)[C@H](CC(C)C)NC(=O)[C@@H]1CCCN1C(=O)[C@H](CCCCN)NC(=O)c1ccc(O[C@@H]2O[C@H](CO)[C@H](O)[C@H](O)[C@H]2O)cc1)C(=O)N[C@@H](Cc1ccccc1)C(=O)N[C@@H](CS)C(N)=O	lecA	binding, ITC	–	pH 7.5	7340
CC[C@H](C)[C@H](NC(=O)[C@@H](NC(=O)[C@@H](NC(=O)[C@@H](NC(=O)[C@H](Cc1c[nH]c2ccccc12)NC(=O)[C@H](CCC(=O)O)NC(=O)[C@H](CO)NC(=S)Nc1ccc2c(c1)C(=O)OC21c2ccc(O)cc2Oc2cc(O)ccc21)C(C)C)[C@@H](C)CC)C(C)C)C(=O)N[C@@H](C)C(=O)N[C@@H](Cc1ccccc1)C(=O)N[C@@H](CC(C)C)C(=O)N[C@H](C(=O)N[C@@H](CC(N)=O)C(=O)N[C@@H](CC(C)C)C(=O)O)[C@@H](C)O	Rgg transcriptional regulator (Streptococcus pneumoniae, UniProt A0A0E7KI02)	binder, fluorescence polarization	–	20 min, pH 7.4, 20 °C, fluorescein-labelled peptide	1660
CCCCCCCC(=O)N[C@@H](CCCCNS(=O)(=O)c1cccc2c(N(C)C)cccc12)C(=O)N[C@H](C(=O)N[C@@H](CCN)C(=O)N[C@H]1CCNC(=O)[C@H]([C@@H](C)O)NC(=O)[C@H](CCN)NC(=O)[C@H](CCN)NC(=O)[C@H](CC(C)C)NC(=O)[C@@H](Cc2ccccc2)NC(=O)[C@H](CCN)NC1=O)[C@@H](C)O	Escherichia coli lipopolysaccharide	isothermal titration calorimetry	–	pH 7.0, 37 °C, second binding site set	24000 ± 7200
CC(C)C[C@H](NC(=O)[C@@H](NC(=O)[C@@H](NC(=O)CNC(=O)CNC(=O)CNC(=O)CNC(=O)CNC(=O)[C@H](CC(N)=O)NC(=O)[C@H](CCCNC(=N)N)NC(=O)[C@H](Cc1c[nH]cn1)NC(=O)[C@H](CCCNC(=N)N)NC(=O)[C@H](Cc1ccc(O)cc1)NC(=O)[C@@H]1CCCN1C(=O)[C@@H]1CCCN1C(=O)[C@@H]1CCCN1C(=O)[C@@H]1CCCN1C(=O)[C@H](CC(C)C)NC(=O)[C@@H](NC(=O)[C@@H](NC(=O)CN)[C@@H](C)O)C(C)C)[C@@H](C)O)C(C)C)C(=O)N1CCC[C@H]1C(=O)N1CCC[C@H]1C(=O)N1CCC[C@H]1C(=O)N1CCC[C@H]1C(=O)N[C@@H](Cc1ccc(O)cc1)C(=O)N[C@@H](CCCNC(=N)N)C(=O)N[C@@H](Cc1c[nH]cn1)C(=O)N[C@@H](CCCNC(=N)N)C(=O)N[C@@H](CC(N)=O)C(=O)O	WW domain-containing oxidoreductase, WW1 domain (WWOX, Homo sapiens, UniProt Q9NZC7)	ITC	–	pH 7.8, 20 °C	50000 ± 16000
N=C(N)NCCC[C@H](NC(=O)[C@H](Cc1ccccc1)NC(=O)[C@@H]1CCCN1C(=O)[C@H](CO)NC(=O)[C@H](Cc1ccccc1)NC(=O)CNC(=O)[C@@H]1CCCN1C(=O)[C@@H]1CCCN1C(=O)[C@@H](N)CCCNC(=N)N)C(=O)N[C@@H](CCCCNS(=O)(=O)c1ccc(C2=c3cc4c5c(c3Oc3c2cc2c6c3CCCN6CCC2)CCC[N+]=5CCC4)c(S(=O)(=O)[O-])c1)C(=O)O	Oligopeptide-binding protein OppA (oppA, Lactococcus lactis subsp. lactis, UniProt Q07741)	binding, fluorescence anisotropy	–	pH 5, 45 °C, added: dye-labelled peptide	31000 ± 1000
CC(C)(O)[C@H]1O[C@H]2CC[C@@]3(C)[C@@](O)(CC[C@H]4Cc5c([nH]c6ccccc56)[C@@]43C)C2=CC1=O	Kcnma1 (Mus musculus, UniProt Q08460)	BK channel current, inhibitor, inside-out patch clamp	Xenopus oocytes	closed channel affinity	11.8
O=C(/C=C/c1ccccc1F)c1ccc(OS(=O)(=O)c2cccs2)cc1	CP, capsid (Tobacco mosaic virus, UniProt P69687)	binding, MST	–	–	270
Cc1cc(S(=O)(=O)N(C)CC(=O)Nc2ccn(C)c(=O)c2)c2[nH]ncc2c1	DLD (Homo sapiens, UniProt P09622)	binding, SPR	–	–	7600
CC[C@H](C)[C@H](NC(=O)[C@H](CCCCN)NC(=O)[C@H](Cc1ccccc1)NC(=O)[C@H](CCCCNC(=O)[C@H](CC(C)C)NC(=O)[C@@H]1CCCN1C(=O)[C@H](CCCCN)NC(=O)c1ccc(O[C@@H]2O[C@H](CO)[C@H](O)[C@H](O)[C@H]2O)cc1)NC(=O)[C@H](CC(C)C)NC(=O)[C@@H]1CCCN1C(=O)[C@H](CCCCN)NC(=O)c1ccc(O[C@@H]2O[C@H](CO)[C@H](O)[C@H](O)[C@H]2O)cc1)C(N)=O	lecA	isothermal titration calorimetry	–	pH 7.5, 25 °C, added: 25 mM CaCl2	500 ± 200
CC[C@H](C)[C@H](NC(=O)[C@H](Cc1ccc(O)cc1)NC(=O)[C@H](CCCNC(=N)N)NC(=O)[C@H](Cc1ccc(O)cc1)NC(=O)[C@H](CCSC)NC(C)=O)C(=O)N[C@H]1CSCc2cccc(c2)CSC[C@@H](C(=O)N[C@@H](CC(C)C)C(=O)N[C@@H](C)C(=O)N[C@@H](CO)C(=O)N[C@@H](Cc2ccc(O)cc2)C(=O)NCC(=O)N[C@@H](CO)C(=O)NCC(=O)N[C@@H](CO)C(=O)NCC(=O)N[C@@H](CO)C(=O)N[C@@H](CC(=O)O)C(=O)N[C@@H](Cc2ccc(O)cc2)C(=O)N[C@@H](CCCCN)C(=O)N[C@@H](CC(=O)O)C(=O)N[C@@H](CC(=O)O)C(=O)N[C@@H](CC(=O)O)C(=O)N[C@@H](CC(=O)O)C(=O)N[C@@H](CCCCN)C(N)=O)NC(=O)[C@H](CC(N)=O)NC(=O)[C@H](CO)NC(=O)[C@H](CC(C)C)NC(=O)[C@H]([C@@H](C)O)NC1=O	FGFR4 (Homo sapiens, UniProt P22455)	binding, BLI	–	–	> 10000
CSCC[C@H](NC(=O)[C@H](C)NC(=O)[C@H](CCC(N)=O)NC(=O)[C@H](CCC(N)=O)NC(=O)[C@H](CC(C)C)NC(=O)[C@H](CCC(=O)O)NC(=O)[C@H](CC(=O)O)NC(=O)[C@H](CCC(=O)O)NC(=O)CNC(=O)[C@H](Cc1ccc(O)cc1)NC(=O)[C@H](CO)NC(=O)[C@@H]1CCCN1C(=O)[C@@H](N)C(C)C)C(=O)N[C@@H](CCCNC(=N)N)C(=O)N[C@@H](CC(C)C)C(=O)N[C@@H](CC(C)C)C(=O)N[C@@H](CC(N)=O)C(=O)N[C@@H](C)C(=O)N[C@@H](C)C(=O)N[C@@H](CO)C(=O)N[C@@H](CCCNC(=N)N)C(=O)N[C@@H](CCC(N)=O)C(=O)N[C@@H](CCCNC(=N)N)C(=O)N[C@H](C(=O)N[C@@H](CCC(=O)O)C(=O)N[C@@H](C)C(=O)N[C@@H](C)C(=O)N[C@@H](CC(N)=O)C(=O)N[C@@H](CCC(=O)O)C(=O)N[C@@H](CC(=O)O)C(=O)N[C@@H](Cc1ccccc1)C(=O)NCC(=O)NCC(=O)N[C@H](C(=O)O)[C@@H](C)O)[C@@H](C)O	Protein Smaug, residues 70-281 (smg, Drosophila melanogaster, UniProt Q23972)	isothermal titration calorimetry	–	pH 7.5, 15 °C	810 ± 130
CC(C)C[C@H](NC(=O)[C@@H]1CCCN1C(=O)[C@H](CC(=O)O)NC(=O)[C@H](CO)NC(=O)[C@H](C)NC(=O)CC1c2ccccc2-c2ccccc21)C(=O)NCC(=O)N[C@H](C(=O)N[C@H](C(=O)N[C@@H](CCCNC(=N)N)C(=O)N1CCC[C@H]1C(=O)N[C@@H](CCCNC(=N)N)C(N)=O)C(C)C)C(C)C	Klotho (Kl, Mus musculus, UniProt O35082)	BLI competition binding	–	30 min, 30 °C, added: 100 nM mouse Klotho, immobilized Pep-10-Biotin	357 ± 66
CCOc1ccc2c(c1)c(C(=O)O)c(C)n2C	E3 ubiquitin-protein ligase CBL-C (Homo sapiens, UniProt Q9ULV8)	binding, NMR	–	–	400000
CC(C)=CCC/C(C)=C/CC/C(C)=C/C(=O)O	Juvenile hormone acid O-methyltransferase (JHAMT, Bombyx mori, UniProt Q767F1, Q14E)	binding, fluorescence binding	–	pH 8.0, 25 °C	190 ± 40
CC(C)C[C@H](NC(=O)[C@H](CCCNC(=N)N)NC(=O)[C@H](CCC(=O)O)NC(=O)[C@H](CCCCN)NC(=O)[C@H](CCCNC(=N)N)NC(=O)[C@H](CCCCN)NC(=O)[C@]1(C)CCCC=CCCC[C@](C)(NC(=O)[C@H](CC(C)C)NC(=O)[C@H](CO)NC(=O)[C@H](C)NC(=O)[C@H](CCCCN)NC(=O)[C@H](CCCNC(=N)N)NC(=O)[C@H](C)NC(=O)[C@H](CCC(N)=O)NC(=O)[C@@H]2CCCN2C(=O)[C@@H](NC(=O)[C@H](CO)NC(=O)c2ccc3c(c2)C(=O)OC32c3ccc(N(C)C)cc3Oc3cc(N(C)C)ccc32)C(C)C)C(=O)N[C@@H](CCCNC(=N)N)C(=O)N[C@@H](Cc2ccccc2)C(=O)N[C@@H](CC(C)C)C(=O)N1)C(=O)O	Transcription factor MYC2 (MYC2, Arabidopsis thaliana, UniProt Q39204)	binding, fluorescence anisotropy	–	pH 8.0, MYC2 residues 55-259	730 ± 100
CC(=O)N[C@@H](CCCNC(=N)N)C(=O)N[C@H](C(=O)N[C@@H](CCCCN)C(=O)N[C@@H](CCC(N)=O)C(=O)N[C@H](C(=O)N[C@@H](C)C(=O)N[C@@H](CCCNC(=N)N)C(=O)N[C@@H](CCCCNC(=O)c1ccccc1)C(=O)N[C@@H](CO)C(=O)N[C@H](C(=O)NCC(=O)NCC(=O)N[C@@H](CCCCN)C(=O)N[C@@H](C)C(=O)N1CCC[C@H]1C(N)=O)[C@@H](C)O)[C@@H](C)O)[C@@H](C)O	Protein AF-9 (Homo sapiens, UniProt P42568)	binding, ITC	–	pH 7.5	5970

A few entries again:
Structure (SMILES)	target	test	system	conditions	Kd [nM]
CC(C)C[C@H](NC(=O)[C@@H](NC(=O)[C@@H](NC(=O)CNC(=O)CNC(=O)CNC(=O)CNC(=O)CNC(=O)[C@H](CC(N)=O)NC(=O)[C@H](CCCNC(=N)N)NC(=O)[C@H](Cc1c[nH]cn1)NC(=O)[C@H](CCCNC(=N)N)NC(=O)[C@H](Cc1ccc(O)cc1)NC(=O)[C@@H]1CCCN1C(=O)[C@@H]1CCCN1C(=O)[C@@H]1CCCN1C(=O)[C@@H]1CCCN1C(=O)[C@H](CC(C)C)NC(=O)[C@@H](NC(=O)[C@@H](NC(=O)CN)[C@@H](C)O)C(C)C)[C@@H](C)O)C(C)C)C(=O)N1CCC[C@H]1C(=O)N1CCC[C@H]1C(=O)N1CCC[C@H]1C(=O)N1CCC[C@H]1C(=O)N[C@@H](Cc1ccc(O)cc1)C(=O)N[C@@H](CCCNC(=N)N)C(=O)N[C@@H](Cc1c[nH]cn1)C(=O)N[C@@H](CCCNC(=N)N)C(=O)N[C@@H](CC(N)=O)C(=O)O	WW domain-containing oxidoreductase, WW1 domain (WWOX, Homo sapiens, UniProt Q9NZC7)	ITC	–	pH 7.8, 20 °C	50000 ± 16000
CC(C)CC(NC(=O)C(NC(=O)NC(C(=O)O)C(C)C)C1CCNC(=N)N1)C(=O)NCCCNC(C(=O)O)C(OC1OC(CN)C(O)C1O)C1OC(n2ccc(=O)[nH]c2=O)C(O)C1O (stereo not drawn)	mraY (Aquifex aeolicus, UniProt O66465, F262A)	binding, ITC	–	–	228
